Experimental data pooled from the literature.
Compare with care: the assays were run in different laboratories. ± marks the error that the study gave. Values after ≈ are worked out from the molar mass of the structure shown.
Organism: Enterococcus faecalis

Compound	test	test system	setting	how to read	quantity	result
CC(=NNC(=N)N)c1nnn(-c2ccc(C#CC3(O)CCCCC3)cc2)c1C	–	WI-38, ATCC 51299	–	relative to: WI-38 IC50 over MIC	selectivity index	8.78
CC(CCC(=O)[O-])C1CCC2C3C(O)CC4CC(O)CCC4(C)C3CCC12C.C[N+](C)(C)CC(O)CC(=O)O (stereo not drawn)	–	TISTR 927	1 mg per disc, 18 to 24 h, 37 °C, 6 mm disc	–	inhibition zone diameter	7.7 ± 0.6 mm
CN(C)CCCNCCCNC(=O)[C@@H]1NC(=O)[C@@H]2Cc3ccc(cc3)Oc3cc4cc(c3O)-c3ccc5c(c[nH]c5c3)C[C@@H](NC(=O)C(N)c3ccc(O)cc3)C(=O)N[C@H](c3ccc(O)cc3)C(=O)N[C@H]4C(=O)N[C@@H](C(=O)N2C)c2ccc(cc2)Oc2cc1ccc2O (stereo partly drawn)	–	brain heart infusion medium	–	–	MIC	16 µg/mL (≈ 12.7 µM)
CC(CCC(=O)[O-])C1CCC2C3CCC4CC(O)CCC4(C)C3CC(O)C12C.C[N+](C)(C)CC(O)CC(=O)O (stereo not drawn)	–	TISTR 927	1 mg per disc, 18 to 24 h, 37 °C, 6 mm disc	–	inhibition zone diameter	9.8 ± 1.2 mm
Fc1cc2nc3c4cccnc4c4ncccc4c3nc2cc1F.[Cl-].[Cl-].[Ru+2].c1ccncc1.c1ccncc1.c1ccncc1.c1ccncc1	–	VRE ATCC 51299	LED irradiation 470 nm	–	MIC90	2 µM
CCN1CCNC1=[S+][Ag-3]([O][N+](=O)[O-])([P+](c1ccccc1)(c1ccccc1)c1ccccc1)[P+](c1ccccc1)(c1ccccc1)c1ccccc1	–	MTCC 439, DMSO	0.1 mL of 50 mg/mL in 8 mm well, 18 to 24 h	–	inhibition zone diameter	23 mm
CNC(CC(C)C)C(=O)NC1C(=O)NC(CC(N)=O)C(=O)NC2C(=O)NC3C(=O)NC(C(=O)NC(C(=O)O)c4cc(O)cc(O)c4-c4cc3ccc4O)C(O)c3ccc(c(Cl)c3)Oc3cc2cc(c3OC2OC(CO)C(O)C(O)C2OC2CC(C)(NCc3ccc(-c4ccc(Cl)cc4)cc3)C(O)C(C)O2)Oc2ccc(cc2Cl)C1O (stereo not drawn)	broth microdilution	ATCC BAA-2573 VanA	–	–	MIC	0.3 µg/mL (≈ 0.182 µM)
FC(F)(F)c1ccc2nc3c4cccnc4c4ncccc4c3nc2c1.[Cl-].[Cl-].[Ru+2].c1ccncc1.c1ccncc1.c1ccncc1.c1ccncc1	–	VRE ATCC 51299	LED irradiation 470 nm	–	MIC90	2 µM
[Ag+].[S-]c1ccccn1.c1ccc(P(c2ccccc2)c2ccccc2)cc1.c1ccc(P(c2ccccc2)c2ccccc2)cc1	–	MTCC 439, DMSO	0.1 mL of 50 mg/mL in 8 mm well, 18 to 24 h	–	inhibition zone diameter	13 mm

Excerpt of the above:
Compound	test	test system	setting	how to read	quantity	result
CC(CCC(=O)[O-])C1CCC2C3C(O)CC4CC(O)CCC4(C)C3CCC12C.C[N+](C)(C)CC(O)CC(=O)O (stereo not drawn)	–	TISTR 927	1 mg per disc, 18 to 24 h, 37 °C, 6 mm disc	–	inhibition zone diameter	7.7 ± 0.6 mm
